Experimental data pooled from the literature.
Every numbered part comes from another study and shows a few of its results, in no order. Substitutions count along the parent as printed.

Block 1 — method: protein-binding microarray; molecule type: double-stranded DNA, one strand shown; medium: in vitro; tested at: 250 nM; setting: 60-bp whole probe; together with: salmon DNA 0.4 mg/ml; baseline: random background probes; direction: higher = stronger binding; shared flanks, not repeated: GCCTAGCAC … GTCTTGATTCGCTTGACGCTGCTG
Target: Interferon regulatory factor 5, full length, phosphomimetic (IRF5, Homo sapiens, UniProt Q13568-2, residues 1-514, K96S/S451D/S453D/S456D/S462D)
Strand | log fluorescence [z-score]
GACGGTATCGACTTTAGGGACGTGCTA | 2.04
GAATCTCTCATGTTACATTTGTGCTAG | 0.753
TGGCCTCTAGGTTTTCTGAAGTGCTAG | -0.178
GACGATTTAAGTCTCGAGACGTGCTAG | 0.328
TTCTCTTTCACTACTCCATTGTGCTAG | 5.89
TTGTCTCTGTCCCTGTTTCTGTGCTAG | 1.34
GTCTGTTTGGGTCTTGTCTGGTGCTAG | 0.0414
TTAGGTTTCGGGTTTCGGATAGTGCTA | 9.25
TTATGTCTCGGTATCGGTTAGTGCTAG | 5.62
AACGATTTCAGTTTCGAGACGTGCTAG | 7.15
GTCGATTTCGGGTTTCGAGACGTGCTA | 6.55
TCATACTTGTGTCTAGAACTGTGCTAG | 0.437
GACGGGTTCCTTTTCCTGACGTGCTAG | 0.111
TCAATTGGTTGAACATGACTGTGCTAG | 0.121
GACGGTATCGGACTGGGGACGTGCTAG | 0.954
TTTCTCTGCTCTTTTCAACAAGTGCTA | 5.59
TTAGATTTGAGTATCGATTAGTGCTAG | 6.63
GACGGTTTCGTTTCCGGGACGTGCTAG | 6.06
GACAGACTGGGTCTCGGGACGTGCTAG | -0.522

Block 2 — method: Sort-seq; measured: YFP reporter; medium: E. coli; setting: PhoQ-PhoP variant library; together with: 10 µM Mg2+; baseline: high Mg2+ state; direction: higher = stronger signaling
Molecule: PhoQ, residues 284 288 289 292 302 303 SMMNNA
target | fold induction
PhoP, residues 12 14 15 18 19 GMGLL (Escherichia coli, UniProt P23836) | 6.1
PhoP, residues 12 14 15 18 19 LFHKL (Escherichia coli, UniProt P23836) | 4.91
PhoP, residues 12 14 15 18 19 QQAYL (Escherichia coli, UniProt P23836) | 22.4

Block 3 — method: DHFR PCA, deep sequencing; medium: yeast; together with: (+)-ABA 0.39 µM; baseline: wild-type fitted maximum; direction: higher = stronger binding
Target: ABI1, truncated, D143A, DHFR fusion (Arabidopsis thaliana)
Setting: methotrexate growth selection, single substitutions
Starting sequence: PYL1, truncated, DHFR fusion (Arabidopsis thaliana); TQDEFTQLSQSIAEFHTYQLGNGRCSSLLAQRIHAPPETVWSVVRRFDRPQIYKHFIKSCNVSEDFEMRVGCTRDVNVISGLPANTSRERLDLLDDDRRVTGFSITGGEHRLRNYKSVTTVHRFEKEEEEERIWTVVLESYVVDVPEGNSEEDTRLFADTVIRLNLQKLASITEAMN; partner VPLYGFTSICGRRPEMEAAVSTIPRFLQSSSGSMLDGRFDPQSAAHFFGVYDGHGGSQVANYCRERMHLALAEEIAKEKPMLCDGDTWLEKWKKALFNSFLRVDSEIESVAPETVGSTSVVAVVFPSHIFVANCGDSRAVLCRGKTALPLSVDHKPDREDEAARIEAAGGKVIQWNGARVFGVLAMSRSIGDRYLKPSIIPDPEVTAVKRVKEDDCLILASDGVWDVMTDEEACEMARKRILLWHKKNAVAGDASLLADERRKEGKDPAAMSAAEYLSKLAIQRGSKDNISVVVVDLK
Change | relative binding score [%]
E130Q | 49
L156D | -13.7
H55R | 69.8
M68N | 11.6
P36S | 38.7
T120R | -10.2
S63P | 53.6
V118C | 25.7
L20F | 22
T135G | 4.49
L91M | 11
P83N | 0.0878

Block 4 — target: CCNE2, cyclin fold, Cln2 fusion (human); method: yeast growth competition, sequencing; medium: yeast; setting: weak parent motif; baseline: not given; direction: higher = stronger binding
Starting sequence: WEE1 docking peptide (human); CTLRQKLIFSPCS; partner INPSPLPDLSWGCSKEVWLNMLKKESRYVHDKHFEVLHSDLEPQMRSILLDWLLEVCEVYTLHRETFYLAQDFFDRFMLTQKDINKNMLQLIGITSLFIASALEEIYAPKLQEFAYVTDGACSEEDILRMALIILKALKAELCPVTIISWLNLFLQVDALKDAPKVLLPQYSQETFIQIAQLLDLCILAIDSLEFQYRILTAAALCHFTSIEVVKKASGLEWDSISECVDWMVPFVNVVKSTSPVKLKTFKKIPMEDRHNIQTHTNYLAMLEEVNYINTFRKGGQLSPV
Change | normalised enrichment score
S10A | 0.693
Q5A | 0.769
I8A | 0.59
K6A | 0.245
T2A | 0.565
C12A | 0.333

Repeated from above (block 4):
Change | normalised enrichment score
S10A | 0.693
Q5A | 0.769
I8A | 0.59
K6A | 0.245
T2A | 0.565
C12A | 0.333
